Published values pooled from the literature.
± gives the spread as reported.
Organism: Leishmania infantum

c1ccc2c(Cc3c[nH]c4ccccc34)c[nH]c2c1  IC50 (viability, MTS; human clinical isolate promastigote; 72 h): > 20 µM
C/C=C(\CO)C(=O)NCc1ccc2c(c1)C(=O)CC(C)(C)O2  IC50 (bone marrow-derived macrophages, intracellular amastigotes; 24 h): 5 to 10 µM
Cc1ncnc2c1c(SC(F)(F)F)cn2[C@@H]1O[C@H](CO)[C@@H](O)[C@H]1O  EC50 (parasite growth, imaging; mouse Macrophage; 5 days, intracellular, amastigote): > 64 µM
CCOC(=O)c1c(C)ncn1CC(c1cn(C)c2ccc([N+](=O)[O-])cc12)c1cn(C)c2ccc([N+](=O)[O-])cc12  IC50 (viability, MTS; human clinical isolate promastigote; 72 h): 5.3 µM
C/C=C(\CO)C(=O)OCc1ccc2c(c1)C(=O)CC(C)(C)O2  IC50 (bone marrow-derived macrophages, intracellular amastigotes; 24 h): 5 to 10 µM
Cc1ncnc2c1c(C1CCOCC1)cn2[C@@H]1O[C@H](CO)[C@@H](O)[C@H]1O  EC50 (parasite growth, imaging; mouse Macrophage; 5 days, intracellular, amastigote): 5.31 µM
C[C@@H]1[C@H](O)[C@@H](C)/C=C/C=C/C=C/C=C/C=C/C=C/C=C/[C@H](O[C@@H]2O[C@H](C)[C@@H](O)[C@H](N)[C@@H]2O)C[C@@H]2O[C@](O)(C[C@@H](O)C[C@@H](O)[C@H](O)CC[C@@H](O)C[C@@H](O)CC(=O)O[C@H]1C)C[C@H](O)[C@H]2C(=O)O  EC50 (intracellular amastigotes, ex vivo mouse splenic explants; 72 h): 0.32 ± 0.05 µM
CCOC(=O)c1c(C#N)c(-c2c[nH]c3ccccc23)n(NC(=O)OC(C)(C)C)c1C  inhibition (parasite growth; 20 µM, 72 h, promastigote): -31.6%
COC(=O)c1c(C)ncn1CC(c1c[nH]c2ccccc12)c1c[nH]c2ccccc12  IC50 (viability, MTS; human clinical isolate promastigote; 72 h): 8.1 µM
C/C=C(\CO)C(=O)NCc1ccc2c(c1)C(=O)CC(C)(C)N2  IC50 (bone marrow-derived macrophages, intracellular amastigotes; 24 h): 5 to 10 µM
Cc1ncnc2c1c(C1=CCCCC1)cn2[C@@H]1O[C@H](CO)[C@@H](O)[C@H]1O  EC50 (parasite growth, imaging; mouse Macrophage; 5 days, intracellular, amastigote): > 64 µM
N=C(N)c1ccc(OCCCCCOc2ccc(C(=N)N)cc2)cc1  IC50 (viability, MTS; human clinical isolate promastigote; 72 h): 1.5 µM
Cc1ncnc2c1c(CC(C)C)cn2[C@@H]1O[C@H](CO)[C@@H](O)[C@H]1O  EC50 (parasite growth, imaging; mouse Macrophage; 5 days, intracellular, amastigote): > 64 µM
CC1(C)CC(=O)c2cc(CNC(=O)C/C=C/c3ccccc3)ccc2N1  IC50 (bone marrow-derived macrophages, intracellular amastigotes; 24 h): > 10 µM
CCc1cn([C@@H]2O[C@H](CO)[C@@H](O)[C@H]2O)c2ncnc(N)c12  EC50 (parasite growth, imaging; mouse Macrophage; 5 days, intracellular, amastigote): 21.6 µM
c1ccc2c(NCCCn3ccnc3)nncc2c1  infection inhibition (J774.2 macrophages; IC25, 240 h, day 10; relative to: untreated): 47%

A few entries again:
C/C=C(\CO)C(=O)NCc1ccc2c(c1)C(=O)CC(C)(C)O2  IC50 (bone marrow-derived macrophages, intracellular amastigotes; 24 h): 5 to 10 µM
